# Results collected from several papers.
# Numbered parts are unrelated; each lists some results of a single study. Positions count from the first letter of the parent shown.

# Sample 1 — technique: DHFR PCA, deep sequencing; matrix: yeast; together with: (+)-ABA 58 µM; relative to: wild-type fitted maximum; reading: higher = stronger binding
# Target: ABI1, truncated, D143A, DHFR fusion (Arabidopsis thaliana)
# Setting: methotrexate growth selection, single substitutions
# Parent: PYL1, truncated, DHFR fusion (Arabidopsis thaliana); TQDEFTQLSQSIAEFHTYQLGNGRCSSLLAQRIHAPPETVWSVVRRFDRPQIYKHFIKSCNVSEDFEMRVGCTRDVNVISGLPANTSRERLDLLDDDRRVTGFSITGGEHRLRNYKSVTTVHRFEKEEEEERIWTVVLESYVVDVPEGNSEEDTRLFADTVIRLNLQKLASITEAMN; partner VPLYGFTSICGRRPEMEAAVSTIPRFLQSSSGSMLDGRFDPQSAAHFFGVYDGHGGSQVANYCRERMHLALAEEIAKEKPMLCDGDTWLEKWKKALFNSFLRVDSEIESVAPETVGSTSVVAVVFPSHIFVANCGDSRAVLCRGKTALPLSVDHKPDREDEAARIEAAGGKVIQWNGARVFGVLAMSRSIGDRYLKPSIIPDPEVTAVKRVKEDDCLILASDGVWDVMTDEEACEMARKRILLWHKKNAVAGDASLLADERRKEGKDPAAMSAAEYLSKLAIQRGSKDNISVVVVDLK
Change,relative binding score
T173N,45.7%
L164V,85.5%
S42C,79.6%
S80P,20%
R113N,96.2%
E151K,82.8%
V43P,-14.8%
V143M,62.7%

# Sample 2 — technique: RNA Bind-n-Seq; form: RNA; matrix: in vitro; concentration: not given; relative to: input RNA pool; reading: higher = stronger binding
# Target: RING finger protein unkempt homolog, zinc fingers 1-6, GST-SBP tag (UNK, Homo sapiens, UniProt Q9C0B0, residues 30-357)
# Chain of UniProt Q9C0B0 (30-357, looked up): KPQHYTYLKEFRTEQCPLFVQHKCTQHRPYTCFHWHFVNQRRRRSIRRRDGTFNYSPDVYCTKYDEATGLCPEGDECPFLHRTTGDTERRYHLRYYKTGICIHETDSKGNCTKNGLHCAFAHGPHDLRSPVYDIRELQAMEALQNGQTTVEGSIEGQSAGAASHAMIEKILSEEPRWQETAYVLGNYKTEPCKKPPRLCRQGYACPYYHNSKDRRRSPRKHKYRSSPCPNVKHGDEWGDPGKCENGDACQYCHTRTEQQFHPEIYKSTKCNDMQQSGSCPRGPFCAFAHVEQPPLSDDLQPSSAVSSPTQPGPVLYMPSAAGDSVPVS
# Setting: RNA with constant flanks, human and mouse sites, ends assumed
# Constant ends, left off below: GGGAGUUCUACAGUCCGACGAUC … CAACAGAGGAUUGAGCAUCA
Oligonucleotide,bound/input enrichment [ratio]
GAUGUCUGUGUGUUCGCAGCACAAGAAGACCUAGAGACCAUGCAAGCAUUCGCUCAGGUUUUUAACAAGCUAAUCAGGCGCUACAAAUACCUGGAGAAAGGUUUUGAAGAUGAAGUUAAA,0.208
AUGCUCCUAGAAGCUGAAAAUGACAAAGAAGUUGAAAUUCUUAAAGAUAUCCGGGCACAUUUUAGUGCAAUGGUGGCCAACUUGAUUCAGUGUGUUCCAGUUCACCACCGAAGAUUUCUC,0.239
GCAGACAGUGACCCAUUUUCAACUGACACUUUGAGUUCACGCCCUCUCAGUGAGACAAGAAGUGAUUUCUGUCCCUCUUCCAGUGACCUUGACUCAGCUGGCCAGGACCCCAGUGCCAAU,0.136
AUAAGCCCUGAUUCUGGUUUUUAACAAGCUGUUUGUUCAUCUAUAUUUAGUUUAAAAUAGGUAGUAUUAUCUUUCUGUACAUAGUGUACAUUACAACUAAAAGUGAUGGAAAAAUACUGU,5.77
GAGAGAGAAAAACUCGUGAAAGCUGAAAGAAAAUUCAUUGAAGAUAGGGUUAAAAAAAUAAUAGAACUGAAAAGGAAAGUCUGUGGCGAUUCAGAUAAAGGAUUUGUUGUUAUUAAUCAA,19.6
CUUGAUUUGGUCCAUGGGAAACCACGAGACAACAAGCAAGCAGGGGUGUUUGAACCAACCAUAGUUAAAGUGAAGAGCCUGAAGUUCGCAACAGAGGCUGCAAUCACCAUCCUUCGGAUU,0.514
UGGACGAACCAUAAAUUCAACGUGACUGGCACCCCAGAACAAUAUGUACCUUAUUCUACCACUAGAAAGAAGAUUCAGGAGUGGAUCCCACCUUCAACACCUUACAAGUAAAGACAAUGA,0.546
CCGACUGACACCACCACCUACAAGAACCUGCAGCACCAUGACUACAACACAUACACCUUCCUGGACCUGAACCUGGACCUCUCCAAAUUCAGGCUGCCACAGCCGUCUUCAGGACGAGAG,0.277

# Sample 3 — target: CCNE2, cyclin fold, Cln2 fusion (human); technique: yeast growth competition, sequencing; matrix: yeast; setting: strong parent motif; relative to: not given; reading: higher = stronger binding
# Parent: BRCA2 docking peptide (human); PSIKRNLLNEFDR
Change,normalised enrichment score
PSIKRNLDNEFDR [L8D],-0.138
PSIKRALLNEFDR [N6A],-0.382
PSIKRNLLSEFDR [N9S],1.98
PSIMRNLLNEFDR [K4M],0.433
PSWKRNLLNEFDR [I3W],3.01
PSGKRNLLNEFDR [I3G],0.828
PSIKWNLLNEFDR [R5W],0.547
PSIKRNLLNEWDR [F11W],0.485
PNIKRNLLNEFDR [S2N],1.38
PSMKRNLLNEFDR [I3M],0.367
PSIKRNDLNEFDR [L7D],-0.4
PSILRNLLNEFDR [K4L],0.658
PSIKRNLLNEFDH [R13H],0.866

# Mixed results
Substance,target,test,test system,setting,scale,endpoint,result
"PhoQ, residues 284 288 289 292 302 303 TLMATV","PhoP, residues 12 14 15 18 19 YHFSH (Escherichia coli, UniProt P23836)","Sort-seq, refers to: YFP reporter",E. coli,"PhoQ-PhoP variant library, together with: 10 µM Mg2+","relative to: high Mg2+ state, higher = stronger signaling",fold induction,1.86

# Excerpt of the above (sample 3):
Change,normalised enrichment score
PSGKRNLLNEFDR [I3G],0.828
PSIKWNLLNEFDR [R5W],0.547
